Measurements collected from several papers.
Numbered parts are unrelated; each lists some results of a single study. Changes are numbered by the printed parent chain.

Study 1 — technique: RNAcompete; molecule type: RNA; medium: in vitro; tested at: 20 nM; setting: 7-mer, probes averaged, single round; relative to: mean of 7-mers; reading: higher = stronger binding
Target: PABPC1L2, full length, GST fusion (mouse, UniProt A0ABA7IW68)
Construct (chain): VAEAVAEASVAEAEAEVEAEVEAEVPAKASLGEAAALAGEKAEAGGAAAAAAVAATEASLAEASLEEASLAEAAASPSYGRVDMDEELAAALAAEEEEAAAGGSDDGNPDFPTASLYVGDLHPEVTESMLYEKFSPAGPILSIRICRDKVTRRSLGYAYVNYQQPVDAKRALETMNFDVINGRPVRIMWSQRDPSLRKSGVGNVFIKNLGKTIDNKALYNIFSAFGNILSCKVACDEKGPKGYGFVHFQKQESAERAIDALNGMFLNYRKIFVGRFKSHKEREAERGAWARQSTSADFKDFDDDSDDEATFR
Oligonucleotide	7-mer Z-score
CCUAUCU	-0.22
GAGCCCG	-0.208
GUGUCGC	-0.215
GUCGCCA	-0.358
UGUAUAC	-0.177
CAACCGU	-0.253
AGGGGAC	0.358
CAACUUG	-0.142

Study 2 — technique: two-hybrid; relative to: out of 4 tests; reading: higher = firmer interaction
Partner: ARF20 484-590 (Arabidopsis thaliana, UniProt Q9C7I9)
B1: IAA32 (Arabidopsis thaliana, UniProt Q8RYC6); chain MDPNTPADFFKGSSKFHTYYSQTKKGGGVIDLGLSLRTIQHETYLPPARMIGLDGYGELIDWSQPSYNSITQLKSEDTGHQRLAQGYYNNEGESRGKYAYVKVNLDGLVVGRKVCLVDQGAYATLALQLNDMFGMQTVSGLRLFQTESEFSLVYRDREGIWRNVGDVPWKEFVESVDRMRIARRNDALLPF
B2: IAA33 (Arabidopsis thaliana, UniProt Q9FKM7); chain MNSFEPQSQDSLQRRFHQDNSTTQQPRDTTTPFIPKPASKNHNNSNSSSGAAGRSFQGFGLNVEDDLVSSVVPPVTVVLEGRSICQRISLDKHGSYQSLASALRQMFVDGADSTDDLDLSNAIPGHLIAYEDMENDLLLAGDLTWKDFVRVAKRIRILPVKGNTRQVKRNE
B3: ARF10 575-693 (Arabidopsis thaliana, UniProt Q9SKN5); chain LQGLETGHCKVFMESEDVGRTLDLSVIGSYQELYRKLAEMFHIEERSDLLTHVVYRDANGVIKRIGDEPFSDFMKATKRLTIKMDIGGDNVRKTWITGIRTGENGIDASTKTGPLSIFA
B4: ARF7 1030-1164 (Arabidopsis thaliana, UniProt P93022); chain PAQTQRMRTYTKVQKRGSVGRSIDVNRYRGYDELRHDLARMFGIEGQLEDPQTSDWKLVYVDHENDILLVGDDPWEEFVNCVQSIKILSSAEVQQMSLDGNFAGVPVTNQACSGGDSGNAWRGHYDDNSATSFNR
B5: ARF11 500-622 (Arabidopsis thaliana, UniProt Q9ZPY6); chain SPKEQKQQTSTRSRIKVQMQGTAVGRAVDLTLLRSYDELIKELEKMFEIEGELSPKDKWAIVFTDDEGDRMLVGDDPWNEFCKMAKKLFIYPSDEVKKMRSKSLLGDKGTIVNLESDQRTVHV
B6: ARF2 727-859 (Arabidopsis thaliana, UniProt Q94JM3); chain TKTNSSRSCTKVHKQGIALGRSVDLSKFQNYEELVAELDRLFEFNGELMAPKKDWLIVYTDEENDMMLVGDDPWQEFCCMVRKIFIYTKEEVRKMNPGTLSCRSEEEAVVGEGSDAKDAKSASNPSLSSAGNS
B7: IAA16 (Arabidopsis thaliana, UniProt O24407); chain MINFEATELRLGLPGGNHGGEMAGKNNGKRGFSETVDLKLNLSSTAMDSVSKVDLENMKEKVVKPPAKAQVVGWPPVRSFRKNVMSGQKPTTGDATEGNDKTSGSSGATSSASACATVAYVKVSMDGAPYLRKIDLKLYKTYQDLSNALSKMFSSFTIGNYGPQGMKDFMNESKLIDLLNGSDYVPTYEDKDGDWMLVGDVPWEMFVDSCKRIRIMKGSEAIGLAPRALEKCKNRS
B8: IAA29 (Arabidopsis thaliana, UniProt Q93WC4); chain MELDLGLSLSPHKSSKLGFNFDLNKHCAIEGAASCLGTEKLRFEATFGLGNVEENCYMPKQRLFALNGQPNEEDEDPLESESSIVYDDEEENSEVVGWPPVKTCMIKYGSYHHRHIRNHHHCPYHHRGRRITAMNNNISNPTTATVGSSSSSSISSRSSMYVKVKMDGVAIARKVDIKLFNSYESLTNSLITMFTEYEDCDREDTNYTFTFQGKEGDWLLRGDVTWKIFAESVHRISIIRDRPCAYTRCLF
Construct (chain): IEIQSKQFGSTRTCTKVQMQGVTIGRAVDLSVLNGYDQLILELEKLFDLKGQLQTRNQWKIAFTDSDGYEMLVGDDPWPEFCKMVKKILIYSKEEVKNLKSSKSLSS
Molecule	positive tests
B1 (IAA32)	0
B2 (IAA33)	3
B3 (ARF10 575-693)	0
B4 (ARF7 1030-1164)	2
B5 (ARF11 500-622)	0
B6 (ARF2 727-859)	1
B7 (IAA16)	0
B8 (IAA29)	0

Study 3 — technique: protein-binding microarray; molecule type: hairpin DNA; medium: in vitro; tested at: not given; relative to: not given; reading: higher = stronger binding
Target: FOXO3, forkhead domain (mouse, UniProt Q9WVH4, residues 31-263)
Chain of UniProt Q9WVH4 (31-263, looked up): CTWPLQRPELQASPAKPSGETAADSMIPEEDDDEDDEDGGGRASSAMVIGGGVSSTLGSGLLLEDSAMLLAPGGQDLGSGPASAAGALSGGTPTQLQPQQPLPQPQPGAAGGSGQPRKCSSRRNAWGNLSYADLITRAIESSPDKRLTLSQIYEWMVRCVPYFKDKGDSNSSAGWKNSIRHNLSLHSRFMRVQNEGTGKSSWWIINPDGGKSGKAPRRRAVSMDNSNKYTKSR
Setting: whole hairpin DNA, median over replicate spots
Oligonucleotide	median fluorescence
GAGGCCATCTAAACAACGCCTCCTGGCGTTGTTTAGATGGCCTCACACTC	4320 a.u.
GAGGCCATCCAAACAACGCCTCCTGGCGTTGTTTGGATGGCCTCACACTC	4740 a.u.
GAGGCCATGTAAACGACGCCTCCTGGCGTCGTTTACATGGCCTCACACTC	4330 a.u.
GAGGCCCTGTAAACAACGCCTCCTGGCGTTGTTTACAGGGCCTCACACTC (5mC at 7)	5460 a.u.
GAGGCCATGTAACCCGCGCCTCCTGGCGCGGGTTACATGGCCTCACACTC	4690 a.u.
GAGGCCATGTCGCCAACGCCTCCTGGCGTTGGCGACATGGCCTCACACTC (5mC at 11 33)	4550 a.u.
GAGGCCATGCGAACAACGCCTCCTGGCGTTGTTCGCATGGCCTCACACTC (5mC at 10 34)	4350 a.u.
GAGGCCACGTAAACAACGCCTCCTGGCGTTGTTTACGTGGCCTCACACTC (5mC at 8)	5520 a.u.

Other studies, line by line — starting sequence: viral docking peptide; KGVKRKLFAEDSS
Substitution	target	assay	test system	conditions	scale	measurement	value
K4V	CCNE1, cyclin fold, Cln2 fusion (human)	yeast growth competition, sequencing	yeast	strong parent motif	relative to: not given, higher = stronger binding	normalised enrichment score	7.24
